Measurements collected from several papers.
A part holds a random share of what one study measured.

Block 1
Target: Histone acetyltransferase KAT6A, winged helix 1, GST fusion (KAT6A, Homo sapiens, UniProt Q92794, residues 1-85)
Method: protein binding microarray
Molecule type: double-stranded DNA, one strand shown
Matrix: in vitro
Tested at: not given
Setting: 8-mer, flanks averaged, mean of 2 arrays, mostly near background
Reference: not given
Reading: higher = stronger binding
Quantity: E-score
Residues (chain): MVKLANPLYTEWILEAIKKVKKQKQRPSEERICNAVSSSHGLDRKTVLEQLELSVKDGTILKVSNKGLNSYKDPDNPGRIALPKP
CCCCTCTC: -0.2
ACAGGCAG: -0.185
GCATCGCA: 0.106
CTTGTTGA: -0.152
AAGTAGAG: -0.243
CCGTAACG: 0.376
ATTCCAAT: -0.112
GTTCCTGA: -0.165
TGACCCCA: -0.27
CTCGTAGA: -0.204
CTATTCTA: -0.178

Block 2
Target: Sal-like protein 4, full length isoform A (SALL4, Homo sapiens, UniProt Q9UJQ4, residues 1-1053)
Chain of UniProt Q9UJQ4 (whole entry, looked up): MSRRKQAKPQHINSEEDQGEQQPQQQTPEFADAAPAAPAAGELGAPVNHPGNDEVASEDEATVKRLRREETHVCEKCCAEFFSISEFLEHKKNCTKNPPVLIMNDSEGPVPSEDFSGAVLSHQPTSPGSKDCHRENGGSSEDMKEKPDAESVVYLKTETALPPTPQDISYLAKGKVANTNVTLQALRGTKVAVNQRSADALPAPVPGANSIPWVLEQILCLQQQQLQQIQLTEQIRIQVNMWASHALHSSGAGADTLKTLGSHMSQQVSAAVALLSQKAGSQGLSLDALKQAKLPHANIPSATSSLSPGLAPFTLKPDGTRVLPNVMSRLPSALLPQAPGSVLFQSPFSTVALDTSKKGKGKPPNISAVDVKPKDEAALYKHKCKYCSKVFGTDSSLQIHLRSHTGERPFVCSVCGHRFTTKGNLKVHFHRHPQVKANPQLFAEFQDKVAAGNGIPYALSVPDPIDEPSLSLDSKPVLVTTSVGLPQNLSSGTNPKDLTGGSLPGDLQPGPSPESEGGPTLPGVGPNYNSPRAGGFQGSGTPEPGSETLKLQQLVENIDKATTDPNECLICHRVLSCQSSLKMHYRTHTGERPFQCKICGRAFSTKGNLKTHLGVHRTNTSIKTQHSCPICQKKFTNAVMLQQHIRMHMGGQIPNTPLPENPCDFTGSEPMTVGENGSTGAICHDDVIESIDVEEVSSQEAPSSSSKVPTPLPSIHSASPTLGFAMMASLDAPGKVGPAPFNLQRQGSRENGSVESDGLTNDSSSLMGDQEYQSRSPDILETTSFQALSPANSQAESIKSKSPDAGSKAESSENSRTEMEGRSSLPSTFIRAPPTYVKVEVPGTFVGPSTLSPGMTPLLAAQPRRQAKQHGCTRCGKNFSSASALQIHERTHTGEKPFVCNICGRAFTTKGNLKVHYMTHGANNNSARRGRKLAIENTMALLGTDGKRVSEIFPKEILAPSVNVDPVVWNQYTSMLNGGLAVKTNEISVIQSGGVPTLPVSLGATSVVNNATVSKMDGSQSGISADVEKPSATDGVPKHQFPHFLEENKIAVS
Method: universal PBM
Molecule type: double-stranded DNA, one strand shown
Matrix: in vitro
Tested at: 600 nM
Setting: 8-mer, flanks averaged, mean of replicates
Reading: higher = stronger binding
Quantity: E-score
AGCATCTC: 0.0619
GAGCCATC: -0.202
GTCTAAGA: -0.0647
ACTACGGG: -0.196
CAGCCCAC: -0.267
AGTTAGAC: 0.0868
GTTACGCA: 0.0426
ACCCAATC: -0.0402
CCGTCGAG: -0.163
GCATAAGA: 0.142
CCGTCCAA: -0.0437

Block 3
Target: Ras GTPase-activating protein-binding protein 1, RRM domain (G3BP1, Homo sapiens, UniProt Q13283)
Chain of UniProt Q13283 (whole entry, looked up): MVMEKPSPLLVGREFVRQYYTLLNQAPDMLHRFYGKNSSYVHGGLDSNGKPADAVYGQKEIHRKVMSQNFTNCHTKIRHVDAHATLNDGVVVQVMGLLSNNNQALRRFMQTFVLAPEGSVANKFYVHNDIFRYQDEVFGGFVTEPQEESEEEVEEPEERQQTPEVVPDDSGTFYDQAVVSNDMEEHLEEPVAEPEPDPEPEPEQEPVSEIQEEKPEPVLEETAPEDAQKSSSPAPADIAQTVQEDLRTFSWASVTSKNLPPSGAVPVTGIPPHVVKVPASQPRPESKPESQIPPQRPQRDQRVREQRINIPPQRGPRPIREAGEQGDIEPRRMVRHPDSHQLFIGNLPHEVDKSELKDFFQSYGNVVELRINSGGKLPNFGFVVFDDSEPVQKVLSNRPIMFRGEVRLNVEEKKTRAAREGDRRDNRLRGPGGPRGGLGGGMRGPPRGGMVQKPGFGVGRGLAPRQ
Method: RNA Bind-n-Seq
Molecule type: RNA
Matrix: in vitro
Tested at: 1 µM
Setting: whole 134-nt RNA, ends assumed
Together with: 150 mM KCl
Reference: input library
Reading: higher = stronger binding
Quantity: log2 enrichment
All sequences stand within: GGGAGUUCUACAGUCCGACGAUC … UGGAAUUCUCGGGUGUCAAGG
GUCCUGUGCUACACAUCGUAUGUACCGAAUCGGGAAAAAGGGUUUUUUUGGGAAAGGGAAAGUAUUAUGUUACGCCGUUCGGAUCUGCAC: 0.00833
AGUCCUGUGCUACACAUCGUAUGUACCGAAUCGGGUUUUUGGUUUUUGGGUUUUUGGGAAAGUAUUAUGUUACGCCGUUCGGAUCUGCAC: -0.102
AGUCCUGUGCUACACAUCGUAUGUACCGAAUCGGUUUUUUUGGAAAAAAAGGAAAGGAAAGUAUUAUGUUACGCCGUUCGGAUCUGCACU: -0.451
CUGCGCGCGGAUUUCCCUCUCUGAGGAAGUUUAUCCUUGUGCCUUCUGGAGGAUUUCUCUCUAGCUCGACUCACUCUGGACUGACUCGCU: -0.283
UGGUGGACCCGCAGCAGCUGGGCAUGUUCACGGAGGGCGAGCUGAUGUCGGUGGGUAUGGACACGUUCAUCCACCGCAUCGACUCCACCG: -0.58
AGUCCUGUGCUACACAUCGUAUGUACCGAAUCGGUUUUUUUGGAAAGGAAAAAAAGGAAAGUAUUAUGUUACGCCGUUCGGAUCUGCACU: -0.125
UCCUGUGCUACACAUCGUAUGUACCGAAUCGGGGCCCCCGGGGCCCCCGGGCCCCCGGGAAAGUAUUAUGUUACGCCGUUCGGAUCUGCA: -0.537
AAGUCCUGUGCUACACAUCGUAUGUACCGAAUCGGGCCCCGGCCCCGGGGCCCCGGAAAGUAUUAUGUUACGCCGUUCGGAUCUGCACUU: -0.726
UGGGAGGUGGAUUUUGUUUAUUUUUUUAGCUCAUUUCCAGGGGUGGGAAUCUUUUUUUAAUAUGUGUCAUGAAUAAAGUUGUUUUUGAAA: 2.38
UCAAGUCCUGUGCUACACAUCGUAUGUACCGAAUCGGGGCCGGGCCGGGCCGGGAAAGUAUUAUGUUACGCCGUUCGGAUCUGCACUUCC: -0.784

Further values, each from its own experiment
PhoQ, residues 284 288 289 292 302 303 HSSMNL  fold induction (PhoP, residues 12 14 15 18 19 SYFRT (Escherichia coli, UniProt P23836); Sort-seq, measured: YFP reporter; E. coli; PhoQ-PhoP variant library, together with: 10 µM Mg2+; reference: high Mg2+ state, higher = stronger signaling): 0.985

A few entries again (block 3):
AGUCCUGUGCUACACAUCGUAUGUACCGAAUCGGGUUUUUGGUUUUUGGGUUUUUGGGAAAGUAUUAUGUUACGCCGUUCGGAUCUGCAC: -0.102
UCCUGUGCUACACAUCGUAUGUACCGAAUCGGGGCCCCCGGGGCCCCCGGGCCCCCGGGAAAGUAUUAUGUUACGCCGUUCGGAUCUGCA: -0.537
AAGUCCUGUGCUACACAUCGUAUGUACCGAAUCGGGCCCCGGCCCCGGGGCCCCGGAAAGUAUUAUGUUACGCCGUUCGGAUCUGCACUU: -0.726
UGGGAGGUGGAUUUUGUUUAUUUUUUUAGCUCAUUUCCAGGGGUGGGAAUCUUUUUUUAAUAUGUGUCAUGAAUAAAGUUGUUUUUGAAA: 2.38
UCAAGUCCUGUGCUACACAUCGUAUGUACCGAAUCGGGGCCGGGCCGGGCCGGGAAAGUAUUAUGUUACGCCGUUCGGAUCUGCACUUCC: -0.784
